Experimental data collected from several papers.
Protocols differ between the studies behind these lines. Values joined by “and” are separate records of one study, mostly repeats; a detail may differ.

Compound	test	test system	conditions	scale	quantity	value
Cc1cc(C(=O)NC(C)(C)C(=O)O)cc(C)n1	LC-MS metabolite profiling	Sprague-Dawley rat, both sexes, plasma	oral, 100 mg/kg of parent drug, 1 (unit not given)	higher = more metabolite	plasma peak area	31500 a.u.
CC[C@H](C)[C@H](NC(=O)[C@H](Cc1ccc(O)cc1)NC(=O)[C@@H](NC(=O)[C@H](CCCNC(=N)N)NC(=O)[C@@H](N)CC(=O)O)C(C)C)C(=O)N[C@@H](Cc1c[nH]cn1)C(=O)N1CCC[C@H]1C(=O)O	LC-MS/MS	Sprague-Dawley rat, both sexes, plasma	subcutaneous, 10 mg/kg/day, day 27, 1.5 h, 90 min	–	plasma concentration	5.18 ng/mL
COc1ccc(C(N)=O)cn1	–	Han Wistar rats, male, plasma	oral, 30 mg/kg, 2.00 h	–	plasma concentration	33000 nM
Cc1cc(C(=O)NC(C)(C)CO)cc(C)n1	LC-MS metabolite profiling	Sprague-Dawley rat, both sexes, plasma	oral, 100 mg/kg of parent drug, 2 (unit not given)	higher = more metabolite	plasma peak area	163000 a.u.
CCCN(C)c1cc(C(F)(F)F)nc(SCCC(=O)NCc2ccco2)n1	–	Wistar rat, plasma	intraperitoneal, 25 mg/kg, 2 h post-dose	reference: vehicle control	plasma creatine kinase	no effect
Cc1noc(C)c1Cn1cc(N2C(=O)CN(Cc3cccc(OS(=O)(=O)O)c3)C2=O)cn1	–	rat Sprague-Dawley male, plasma	intravenous, 1 mg/kg of parent drug, 2 h	–	plasma concentration	439 ng/mL
CNc1cc(N)c(C(N)=O)cn1	–	Han Wistar rats, male, plasma	oral, 30 mg/kg, 4.00 h	–	plasma concentration	6010 nM
CNC(=O)C1CCCN(C(=O)C2CC3CCC2N3C(=O)[C@@H]2C[C@@H](O)CN2C(=O)NCc2cccc(Cl)c2F)C1 (mixture of isomers)	–	Sprague-Dawley rat, plasma	intravenous, 2.5 mg/kg, 15 min	–	plasma concentration	576 ng/mL
CNc1cc(C)c(C(N)=O)cn1	–	Han Wistar rats, male, plasma	oral, 30 mg/kg, 24.0 h	–	plasma concentration	20.8 nM
Cc1noc(C)c1Cn1cc(N2C(=O)CN(Cc3cccc(O[C@@H]4O[C@H](C(=O)O)[C@@H](O)[C@H](O)[C@H]4O)c3)C2=O)cn1	–	Sprague-Dawley rat, male	oral, 10 mg/kg of parent drug, 0.5 h	–	plasma concentration	2290 ng/mL
CNc1cc(N)c(C(N)=O)c[n+]1C	substrate, measured: methylated product	rats, plasma	oral, 30 mg/kg, 8.00 h	–	plasma concentration of product	191 nM and 189 nM
O=C(NS(=O)(=O)c1cccs1)c1cc2ccccc2n1Cc1ccc(Br)c2ccccc12	–	Sprague-Dawley rat, male, plasma	oral, 20 mL/kg, 0.5 h	–	plasma concentration	4210 ng/mL

Some of these lines once more:
Compound	test	test system	conditions	scale	quantity	value
Cc1cc(C(=O)NC(C)(C)C(=O)O)cc(C)n1	LC-MS metabolite profiling	Sprague-Dawley rat, both sexes, plasma	oral, 100 mg/kg of parent drug, 1 (unit not given)	higher = more metabolite	plasma peak area	31500 a.u.
